Assay results collected from several papers.
Compare with care: the assays were run in different laboratories.

| Structure (SMILES) | test | test system | setting | scale | adverse event incidence |
| --- | --- | --- | --- | --- | --- |
| CNC(=O)c1ccc(-c2cnc3ncc(Cc4ccc5ncccc5c4)n3n2)cc1F | phase 1 clinical trial, refers to: upper abdominal pain | all expansion cohorts | oral, 600 mg twice daily, grade 3 or 4 |  | 0% |
| CC[C@H](C)[C@H](NC(=O)[C@H](Cc1ccccc1)NC(=O)[C@H](CCC(=O)O)NC(=O)[C@H](CCCCNC(=O)COCCOCCNC(=O)COCCOCCNC(=O)CC[C@H](NC(=O)CCCCCCCCCCCCCCCCC(=O)O)C(=O)O)NC(=O)[C@H](C)NC(=O)[C@H](C)NC(=O)[C@H](CCC(N)=O)NC(=O)CNC(=O)[C@H](CCC(=O)O)NC(=O)[C@H](CC(C)C)NC(=O)[C@H](Cc1ccc(O)cc1)NC(=O)[C@H](CO)NC(=O)[C@H](CO)NC(=O)[C@@H](NC(=O)[C@H](CC(=O)O)NC(=O)[C@H](CO)NC(=O)[C@@H](NC(=O)[C@H](Cc1ccccc1)NC(=O)[C@@H](NC(=O)CNC(=O)[C@H](CCC(=O)O)NC(=O)C(C)(C)NC(=O)[C@@H](N)Cc1cnc[nH]1)[C@@H](C)O)[C@@H](C)O)C(C)C)C(=O)N[C@@H](C)C(=O)N[C@@H](Cc1c[nH]c2ccccc12)C(=O)N[C@@H](CC(C)C)C(=O)N[C@H](C(=O)N[C@@H](CCCNC(=N)N)C(=O)NCC(=O)N[C@@H](CCCNC(=N)N)C(=O)NCC(=O)O)C(C)C | refers to: Eructation | type 2 diabetes patients | dose not given | reference: subjects | 13.3% |
| FC(F)(F)c1ccc(CNc2ccc(Cc3c[nH]c4ncc(Cl)cc34)cn2)cn1 | refers to: Dysgeusia | patients with advanced solid tumours | oral, dose not given, grade 3 and 4, possibly related to drug |  | 0% |
| Cc1c(C(=O)O)ccc2c3n(nc12)[C@@H]1[C@H](C3)N(CC2CC2)[C@@]2(C(=O)Nc3cc(Cl)ccc32)[C@H]1c1cccc(Cl)c1F | phase Ia trial, refers to: Diarrhea | cancer patients | oral, dose not given, all patients all grades |  | 38.9% |
| CC[C@H](C)CCCCC(=O)N[C@@H](CCN)C(=O)N[C@H](C(=O)N[C@@H](CCN)C(=O)N[C@H]1CCNC(=O)[C@H]([C@@H](C)O)NC(=O)[C@H](CCN)NC(=O)[C@H](CCN)NC(=O)[C@H](CC(C)C)NC(=O)[C@@H](Cc2ccccc2)NC(=O)[C@H](CCN)NC1=O)[C@@H](C)O | refers to: nervous system disorders | normal renal function subjects | IV, 0.75 mg/kg |  | 75% |
| CC(C)n1c(Nc2cccnc2)nc2cnc(Nc3ccc(N4CCN(C)CC4)cc3)nc21 | refers to: Hyperuricemia | healthy male subjects | oral, 100 mg, together with: gemfibrozil |  | 0% |
| O=C1CCc2ccc(OCCCCN3CCN(c4cccc(Cl)c4Cl)CC3)cc2N1 | refers to: Tremor | patients, CYP2D6 ultrarapid metabolizers | dose not given, long-acting oral or depot |  | 14% |
| NCCONC(=O)[C@@H]1CC[C@@H]2CN1C(=O)N2OS(=O)(=O)O | refers to: leading to permanent discontinuation | healthy Chinese men | intravenous, 1 g, treatment-emergent |  | 0% |

Some of these lines once more:
| Structure (SMILES) | test | test system | setting | scale | adverse event incidence |
| --- | --- | --- | --- | --- | --- |
| O=C1CCc2ccc(OCCCCN3CCN(c4cccc(Cl)c4Cl)CC3)cc2N1 | refers to: Tremor | patients, CYP2D6 ultrarapid metabolizers | dose not given, long-acting oral or depot |  | 14% |
